Published values from different studies.

SMILES	test	system	conditions	scale	quantity	value
CC(C)OC(=O)[C@@H](C)N[P@@](=O)(OC[C@H]1O[C@@H](n2ccc(=O)[nH]c2=O)[C@](C)(Cl)[C@@H]1O)Oc1ccccc1	–	human	oral, dose not given, tablet	–	fraction of dose absorbed via route 1	67%
CCN1CCN(Cc2ccc(Nc3ncc(F)c(-c4cc(F)c5nc(C)n(C(C)C)c5c4)n3)nc2)CC1	population PK model	human, plasma	oral	–	fraction entering gut compartment	0.92
CC(=O)N(C)[C@H]1CCN(C(=O)c2cnc3c(c2)C[C@](C)(c2ccc(F)cc2)N3)C1	–	healthy male human, urine	oral, 15 mg once daily, 0-48 h steady state, geometric mean	–	fraction excreted in urine	50.9%
CNC(=O)c1ccc(-c2cnc3ncc(Cc4ccc5ncccc5c4)n3n2)cc1F	ultrafiltration	human moderate hepatic function, plasma	oral, 200 mg, 3 h post-dose, geometric mean	–	fraction unbound	0.032
C[C@H]1CN(C(=O)CC#N)[C@]12CCN(c1ncnc3[nH]ccc13)C2	–	human, male	oral, assumed oral bioavailability 100%	–	fraction of drug metabolized	~25%
CC(C)(C)NCC(O)c1cc(O)cc(O)c1 (centres unmarked)	equilibrium dialysis	human, plasma	–	–	fraction unbound	0.66
CC(C)n1c(C2CCNCC2)nc2c([N+](=O)[O-])c(Br)c(Br)cc21	–	human, urine	oral, 125 mg, median, single dose	–	fraction excreted in urine	0.01
O=C(c1nc2n(n1)[C@H](c1ccccc1)C[C@@H]2F)C1CC1	–	human, fed	oral, 75 mg single dose, mean	–	fraction excreted fe(0-72 h)	0.22%
CNC(=O)c1cc(Cl)c(OC(C)(C)C(=O)O)cc1OC[C@@H](O)CN1CCC2(CC1)Cc1cc(Cl)ccc1O2	equilibrium dialysis	human, plasma	–	–	fraction unbound	0.4
Cc1cc(-c2nccc3c2ccn3CC(=O)Nc2ccc(-c3cnccn3)cn2)ccn1	–	human, urine	oral, 20 mg once daily, day 16, geometric mean	–	fraction excreted in urine (fe)	1.07%
C[C@H]1CN(C2COC2)CCN1c1ccc(Nc2cc(-c3ccnc(N4CCn5c(cc6c5CC(C)(C)C6)C4=O)c3CO)cn(C)c2=O)nc1	–	human, plasma	–	–	fraction unbound	0.2
COc1cc(C(=O)NC2CCN(C)CC2)c(F)cc1Nc1ncc(C(F)(F)F)c(Oc2cccc3c2C(=O)N(C)C3)n1	–	healthy Taiwanese humans, urine	oral, 200 mg single dose, 0-24 h, geometric mean	–	fraction excreted in urine	5.52%
Cn1cc(-c2cn3nccc3c(-c3cnn([C@]4(CC#N)C[C@@H](C#N)C4)c3)n2)cn1	–	healthy humans, urine	oral, 400 mg once daily, day 10, Japanese cohort, dosing interval	–	fraction excreted unchanged in urine	0.7%
CC(C)n1nccc1-c1ncccc1COc1cccc(O)c1C=O	estimated from MDCK Papp	MDCK knock-out, human	1 µM, 90 min	–	fraction absorbed	100%
CN[C@@H]1COc2c(S(=O)(=O)NC(=O)Nc3c4c(cc5c3CCC5)CCC4)cnn2C1	–	healthy human volunteers, urine	oral, 600 mg, fasted	–	fraction excreted in urine 0-48 h	0.125
CC(C)(Sc1ccncc1-c1ccc(C#N)c2ccccc12)C(=O)O	–	human, urine	oral, 5 mg, added: febuxostat 20 mg	–	fraction excreted in urine (0-24 h)	1.39%
NCCONC(=O)[C@@H]1CC[C@@H]2CN1C(=O)N2OS(=O)(=O)O	–	human male, urine	intravenous infusion, 1 g single dose	–	fraction excreted in urine (0-8 h)	78.2%
COc1ccc(F)cc1C(=O)NCc1ccc(-c2nn([C@@H](C)C(F)(F)F)c(N)c2C(N)=O)cc1	–	human	intravenous, 22 µg, biliary excretion assumed	–	fraction metabolised by other pathways	0.39
NC[C@@]1(CC(=O)O)[C@@H]2CC[C@H]3C[C@@H]2[C@@H]1C3	–	human, severe renal impairment, urine	oral, 20 mg single dose, 0-72 h	–	fraction excreted in urine	58.9%
Cl.[2H]C([2H])([2H])CC(=O)c1cnc(NC(=O)C2CC2)cc1Nc1cccc(-c2ncn(C([2H])([2H])[2H])n2)c1OC	–	human, urine	oral, 20 mg once daily, fasted, multiple doses, mean incl outlier	–	fraction excreted unchanged	1.12%
C[C@@H](Oc1ccc(S(C)(=O)=O)cc1C(=O)N1C[C@@H]2C[C@]2(c2cc(C(F)(F)F)on2)C1)C(F)(F)F	–	elderly humans, urine	oral, 25 mg once daily, 0-24 h, multiple dose, geometric mean	–	fraction excreted in urine at steady state	7.1%
CC(C)c1ncc(C(=O)N2CCOC3(CCN(Cc4ccc(F)c(CCNC[C@H](O)c5ccc(O)c6[nH]c(=O)sc56)c4)CC3)C2)s1	equilibrium dialysis	human, plasma	–	–	fraction unbound	0.081
C[C@@H](N)c1cc(Cl)ccc1Cn1c(=S)[nH]c(=O)c2[nH]ccc21	–	human matched controls, urine	oral, 2.5 mg single dose, 0-24 h	baseline: dose	fraction excreted unchanged	55.1%
